Results of several laboratories.
Numbered parts are unrelated; each lists some results of a single study.

Sample 1 — method: RNA Bind-n-Seq; molecule type: RNA; sample: in vitro; tested at: 365 nM; baseline: no-protein control; direction: higher = stronger binding
Target: RNA binding protein fox-1 homolog 2, RRM domain, GST-SBP tag (RBFOX2, Homo sapiens, UniProt O43251-10, residues 100-194)
Notes: natural RNA segment, single round, ends assumed
Target sequence (chain): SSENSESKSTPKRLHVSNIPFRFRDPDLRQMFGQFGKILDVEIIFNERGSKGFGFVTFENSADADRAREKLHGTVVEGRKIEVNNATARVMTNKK
`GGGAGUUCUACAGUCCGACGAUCGUGCAGGCAUGCGGUAGGAAAGGUAGAUCACCUCUGGCUACUCCUGAGGCCCUGCUGAGCCAGCAAAAUGCUUUCCAGUUCCUCUUUGGCUCUCACGAUGCCCACCUAGGUGGAAUUCUCGGGUGCCAA` — result for “RBNS enrichment (R)”: 1.52.
`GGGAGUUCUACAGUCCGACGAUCAGUAUGGGGUUUGUGCUAUGUGGAUGGAUAUGUAAGGAACUCCAGUUCCAGCUACAACUAAAUACAACGUCCUUUGCACCCCUAGAAUGUCAUUUUGCCCUCAAUCUUGGUGGAAUUCUCGGGUGCCAA`: “RBNS enrichment (R)” 1.17.
For `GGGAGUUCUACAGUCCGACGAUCAUCAUAGGAUUUAUCAGUUAUCAGACACCUCAUUGUACCAGAGAUUGUCCAGAAGUUUUAAAGACCUUUGCAUCCCUGAACUGGGCUAUGGGAAAUAAUAAUAGUAAUAAUGGAAUUCUCGGGUGCCAA`, “RBNS enrichment (R)” read 0.37.
For `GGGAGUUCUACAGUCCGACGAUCCCCAGCUGGAAACCCAGAGUCUGAGGGGGAAUCAGGUUCUGGAAGGCAAGCCAGAACUCCAGAGCUGAGCUGGUCACAGUCACUCCUCCCCCACCACCCCUGCCCCUCCAUGGAAUUCUCGGGUGCCAA`, “RBNS enrichment (R)” read 0.362.
`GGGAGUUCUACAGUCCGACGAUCUGCACAGGACUUAUUAACAAGUUAACUCCCAGCCGGCCACUGUGUGCCCUGUACCCUUGCCUCUUCCCAGUGAUAGUGGGCAUAUCCACCUCACCAAGAUAAUUCUGUACUGGAAUUCUCGGGUGCCAA` — result for “RBNS enrichment (R)”: 0.317.
`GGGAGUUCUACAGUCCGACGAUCUGUGAUCACACUACGGGAAUCUCUGUGGUAUAUACCUGGGGCCAUUCUAGGCUCUUUCAAGUGACUUUUGGAAAUCAACCUUUUUUAUUUGGGGGGGAGGAUGGGGAAAAUGGAAUUCUCGGGUGCCAA`: “RBNS enrichment (R)” 0.611.
`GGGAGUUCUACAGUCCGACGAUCAAAUAUUUCUGUAACUUAAGAAACCUGACAUUUAUGUCAUAUUUUCUCUUUAGGUAAGAUUUGGUUUGUUUGUGUCUUGUUUGUUUCCCUCUCCAAAUUCUUCCUUCUUUUGGAAUUCUCGGGUGCCAA`: “RBNS enrichment (R)” 0.921.
Under “RBNS enrichment (R)”, `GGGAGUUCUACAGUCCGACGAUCUAUUAUUAAAUGUUUAAAGUAAGGGAAAAGUCUGGGCUGCCUUCCUUAAUAUUGCAUCUCACUCCCACCCUUAAAACCACAGAUUGCAAAGCAUAGCAUUUUAGCAUCAAUGGAAUUCUCGGGUGCCAA` is recorded as 4.92.

Sample 2 — method: protein-binding microarray; molecule type: double-stranded DNA, one strand shown; sample: in vitro; tested at: 2540 nM top; notes: 60-bp whole probe; together with: salmon DNA 0.4 mg/ml; baseline: random background probes; direction: higher = stronger binding; all sequences stand within: GCCTAGCAC … GTCTTGATTCGCTTGACGCTGCTG
Target: Interferon regulatory factor 3, full length, phosphomimetic (IRF3, Homo sapiens, UniProt Q14653, residues 1-427, S386D/S396D/S398D/S402D/T404D/S405D)
Target sequence (chain): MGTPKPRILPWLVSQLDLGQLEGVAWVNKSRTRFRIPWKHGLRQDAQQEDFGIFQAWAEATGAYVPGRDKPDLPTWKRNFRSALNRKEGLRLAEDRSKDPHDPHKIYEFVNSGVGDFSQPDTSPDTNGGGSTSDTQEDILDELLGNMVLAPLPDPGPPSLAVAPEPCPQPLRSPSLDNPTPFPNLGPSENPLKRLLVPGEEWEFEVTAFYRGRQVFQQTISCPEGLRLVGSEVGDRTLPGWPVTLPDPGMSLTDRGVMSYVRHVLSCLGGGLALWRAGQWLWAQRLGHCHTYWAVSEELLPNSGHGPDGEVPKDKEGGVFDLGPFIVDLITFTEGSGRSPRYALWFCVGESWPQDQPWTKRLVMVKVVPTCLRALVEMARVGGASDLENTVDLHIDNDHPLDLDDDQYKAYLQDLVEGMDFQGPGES
Under “fitted relative affinity”, `TGAGGTATCGGACTGGGTTAGTGCTAG` is recorded as 0.546 z-score.
`AATACCTTCGAGTCTGCAACAGTGCTA`: “fitted relative affinity” 0.147 z-score.
`TTAGATATCGGGTTGCGATTAGTGCTA`: “fitted relative affinity” 0.454 z-score.
Under “fitted relative affinity”, `GACGGACTGCTTCGCCTGACGTGCTAG` is recorded as -0.673 z-score.
`TTAGGTTTCGGTATGGGTTAGTGCTAG`: “fitted relative affinity” 7 z-score.
`TTAGGTGTCGGACTGGGTTAGTGCTAG` — result for “fitted relative affinity”: 0.569 z-score.
`TCATATATGTATATATGACTGTGCTAG` — result for “fitted relative affinity”: 0.727 z-score.
For `GACTGTCTCCTTATCCTGACGTGCTAG`, “fitted relative affinity” read 2.46 z-score.
`TTAGGTATCGGTCTCGGTTCGTGCTAG`: “fitted relative affinity” 4.72 z-score.
For `TTAAGACTGCTTTTCCTTTAGTGCTAG`, “fitted relative affinity” read 0.916 z-score.
For `TCATCACTTTCTTTAACACTGTGCTAG`, “fitted relative affinity” read 1.64 z-score.
Under “fitted relative affinity”, `GACGGACTGGGACTGGGGGCGTGCTAG` is recorded as -0.53 z-score.
`GATGGACTGGACACTGGGGACGTGCTA` — result for “fitted relative affinity”: -0.962 z-score.
`TCATTTTTAGATTTTTTACTGTGCTAG` — result for “fitted relative affinity”: 1.57 z-score.
Under “fitted relative affinity”, `TGTTTTTGCTTTCTTTATGTGTGCTAG` is recorded as 2.73 z-score.
Under “fitted relative affinity”, `TTAGATTTCAGTTCCAATTAGTGCTAG` is recorded as 3.34 z-score.
Under “fitted relative affinity”, `GACGGGCTGGGGACTGGGGACGTGCTA` is recorded as -1.21 z-score.
Under “fitted relative affinity”, `TTAGGACTACTACTGCTTTAGTGCTAG` is recorded as -0.246 z-score.
Under “fitted relative affinity”, `TTAGGACTGGGTGTCGGTTAGTGCTAG` is recorded as -0.0767 z-score.

Sample 3 — method: aptamer microarray, sandwich; molecule type: DNA with 2'F-ANA; sample: in vitro; tested at: 200 nM; together with: Cy3 exosite-II aptamer, 400 nM; direction: higher = stronger binding; strand: GGTTGGTGTGGTTGG
Target: Prothrombin, mature alpha-thrombin (F2, Homo sapiens, UniProt P00734)
Notes: whole 15-mer aptamer, many near background
Under “mean fluorescence intensity”, `2'F-ANA at 1 2 3 4 5 7 10 15` is recorded as 49 a.u.
For `2'F-ANA at 1 3 6 8 9 10 11 12 13 14`, “mean fluorescence intensity” read 65.5 a.u.
`2'F-ANA at 2 3 4 6 7 9 10 12 14 15`: “mean fluorescence intensity” 167 a.u.
For `2'F-ANA at 2 4 5 6 8 10 12 13 14`, “mean fluorescence intensity” read 46.7 a.u.
Under “mean fluorescence intensity”, `2'F-ANA at 1 4 8 9 10 15` is recorded as 49.1 a.u.
`2'F-ANA at 1 3 5 6 9 11 12 14`: “mean fluorescence intensity” 47.9 a.u.
For `2'F-ANA at 2 4 5 6 7 8 11 13 14 15`, “mean fluorescence intensity” read 51.6 a.u.
`2'F-ANA at 2 3 4 5 6 10 12 13 15` — result for “mean fluorescence intensity”: 89.5 a.u.
For `2'F-ANA at 1 4 6 11 13 14`, “mean fluorescence intensity” read 48.5 a.u.
`2'F-ANA at 1 3 4 5 7 10 11 14`: “mean fluorescence intensity” 44.8 a.u.
`2'F-ANA at 1 4 5 6 11 12 13 14`: “mean fluorescence intensity” 46.9 a.u.
Under “mean fluorescence intensity”, `2'F-ANA at 5 6 8 9 13 15` is recorded as 61.9 a.u.
`2'F-ANA at 2 3 5 6 7 10 12 15` — result for “mean fluorescence intensity”: 58.1 a.u.
Under “mean fluorescence intensity”, `2'F-ANA at 4 7 9 10 11 13 14` is recorded as 59.9 a.u.
Under “mean fluorescence intensity”, `2'F-ANA at 7 9 10 11 12 14` is recorded as 120 a.u.
`2'F-ANA at 3 4 10 13`: “mean fluorescence intensity” 283 a.u.
Under “mean fluorescence intensity”, `2'F-ANA at 1 5 8 11 14` is recorded as 47.6 a.u.
`2'F-ANA at 1 3 4 5 6 10 11 12 15`: “mean fluorescence intensity” 53.8 a.u.

Sample 4 — method: RNA Bind-n-Seq; molecule type: RNA; sample: in vitro; tested at: 1 µM; notes: whole 134-nt RNA, ends assumed; together with: 150 mM KCl; baseline: input library; direction: higher = stronger binding
Target: Ras GTPase-activating protein-binding protein 1, C-terminal RGG region (G3BP1, Homo sapiens, UniProt Q13283)
Sequence of UniProt Q13283 (whole entry, looked up): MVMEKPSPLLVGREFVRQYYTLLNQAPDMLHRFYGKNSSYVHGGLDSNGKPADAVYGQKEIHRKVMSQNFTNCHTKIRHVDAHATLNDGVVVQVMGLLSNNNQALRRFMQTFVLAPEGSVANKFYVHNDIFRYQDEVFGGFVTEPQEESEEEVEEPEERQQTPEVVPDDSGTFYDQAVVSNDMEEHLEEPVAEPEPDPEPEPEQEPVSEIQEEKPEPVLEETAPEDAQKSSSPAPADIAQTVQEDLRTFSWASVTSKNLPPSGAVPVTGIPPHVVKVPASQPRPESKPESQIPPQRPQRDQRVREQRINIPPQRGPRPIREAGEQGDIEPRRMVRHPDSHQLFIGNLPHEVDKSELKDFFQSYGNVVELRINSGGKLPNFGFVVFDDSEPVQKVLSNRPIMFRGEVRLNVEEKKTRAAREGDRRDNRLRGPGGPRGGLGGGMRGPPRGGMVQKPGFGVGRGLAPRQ
For `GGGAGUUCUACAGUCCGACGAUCGCAGGAAGUAAAAACAAAUGGAAAUGCUUCGGAUAUUGGCAGGGGUGGGGGUUGCUAAGGAAAGGGUGGGAUGGGAGUGGGUAAAGAGUUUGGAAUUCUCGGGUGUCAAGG`, the log2 enrichment was 1.91.
The log2 enrichment of `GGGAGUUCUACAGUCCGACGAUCCACAGACAACACGCACCCACACAGACACAGAGGGAAGGGGUUGGUAUGGGGACAGGGUGCACAGCAGGGCGGGGUAGGACCCCAGCCCCUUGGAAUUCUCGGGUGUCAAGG` is reported as -0.548.
`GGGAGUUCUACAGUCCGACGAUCAUUAAGGUCACCGUUGCAGGCCUGGCUGGAAAAGACCCAGUACAGUGUAGCCGUGAUGUGGUCAUUUGUCCUGAUGCCAGCCUUGAAGAUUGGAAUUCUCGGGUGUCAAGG` has a log2 enrichment of -1.33.
For `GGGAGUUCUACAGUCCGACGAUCCCUCAAGUCCUGUGCUACACAUCGUAUGUACCGAAUCGGAAGGAAGGGGAAGGAAAGUAUUAUGUUACGCCGUUCGGAUCUGCACUUCCAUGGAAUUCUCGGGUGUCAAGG`, the log2 enrichment was -1.37.
`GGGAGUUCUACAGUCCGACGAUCUGGGAGGUGGAUUUUGUUUAUUUUUUUAGCUCAUUUCCAGGGGUGGGAAUUUUUUUUUAAUAUGUGUCAUGAAUAAAGUUGUUUUUGGAAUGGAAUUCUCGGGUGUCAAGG` gave a log2 enrichment of 2.25.
For `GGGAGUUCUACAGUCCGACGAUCCUCAAGUCCUGUGCUACACAUCGUAUGUACCGAAUCGGGUGGGAAAGGGUGGGAAAGUAUUAUGUUACGCCGUUCGGAUCUGCACUUCCAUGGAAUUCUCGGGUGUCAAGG`, the log2 enrichment was 1.68.
`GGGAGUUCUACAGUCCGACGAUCCUCAAGUCCUGUGCUACACAUCGUAUGUACCGAAUCGGGCGGGGCGGGGCGGGGAAAGUAUUAUGUUACGCCGUUCGGAUCUGCACUUCCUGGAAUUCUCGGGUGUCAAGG` gave a log2 enrichment of 2.41.
For `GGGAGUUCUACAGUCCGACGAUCUCCUGUGCUACACAUCGUAUGUACCGAAUCGGGGAGGGGUUUUUGGGGUUUUUUUGGGGAAAGUAUUAUGUUACGCCGUUCGGAUCUGCAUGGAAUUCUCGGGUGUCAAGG`, the log2 enrichment was 1.28.
For `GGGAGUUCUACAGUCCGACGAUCGUCCUGUGCUACACAUCGUAUGUACCGAAUCGGGUUUUUGGGUUUUUGGGGUUUUUGGAAAGUAUUAUGUUACGCCGUUCGGAUCUGCACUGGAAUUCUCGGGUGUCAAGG`, the log2 enrichment was -0.753.

Some of these lines once more (sample 2):
Under “fitted relative affinity”, `TGAGGTATCGGACTGGGTTAGTGCTAG` is recorded as 0.546 z-score.
`AATACCTTCGAGTCTGCAACAGTGCTA`: “fitted relative affinity” 0.147 z-score.
`TTAGATATCGGGTTGCGATTAGTGCTA`: “fitted relative affinity” 0.454 z-score.
Under “fitted relative affinity”, `GACGGACTGCTTCGCCTGACGTGCTAG` is recorded as -0.673 z-score.
`TTAGGTTTCGGTATGGGTTAGTGCTAG`: “fitted relative affinity” 7 z-score.
`TTAGGTGTCGGACTGGGTTAGTGCTAG` — result for “fitted relative affinity”: 0.569 z-score.
